Results from different studies.
Numbered parts are unrelated; each lists some results of a single study.
Sequence of UniProt P0C264 (whole entry, looked up): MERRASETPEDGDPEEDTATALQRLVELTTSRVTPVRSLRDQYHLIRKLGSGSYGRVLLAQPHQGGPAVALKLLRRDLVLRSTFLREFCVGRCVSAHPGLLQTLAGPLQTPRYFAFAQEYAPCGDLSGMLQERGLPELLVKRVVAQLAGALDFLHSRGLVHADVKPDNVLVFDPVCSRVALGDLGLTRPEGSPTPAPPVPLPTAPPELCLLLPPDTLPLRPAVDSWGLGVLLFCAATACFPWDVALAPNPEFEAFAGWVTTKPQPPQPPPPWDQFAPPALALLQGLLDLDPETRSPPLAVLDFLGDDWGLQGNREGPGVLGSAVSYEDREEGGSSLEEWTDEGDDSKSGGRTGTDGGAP
Sequence of UniProt Q9C098 (whole entry, looked up): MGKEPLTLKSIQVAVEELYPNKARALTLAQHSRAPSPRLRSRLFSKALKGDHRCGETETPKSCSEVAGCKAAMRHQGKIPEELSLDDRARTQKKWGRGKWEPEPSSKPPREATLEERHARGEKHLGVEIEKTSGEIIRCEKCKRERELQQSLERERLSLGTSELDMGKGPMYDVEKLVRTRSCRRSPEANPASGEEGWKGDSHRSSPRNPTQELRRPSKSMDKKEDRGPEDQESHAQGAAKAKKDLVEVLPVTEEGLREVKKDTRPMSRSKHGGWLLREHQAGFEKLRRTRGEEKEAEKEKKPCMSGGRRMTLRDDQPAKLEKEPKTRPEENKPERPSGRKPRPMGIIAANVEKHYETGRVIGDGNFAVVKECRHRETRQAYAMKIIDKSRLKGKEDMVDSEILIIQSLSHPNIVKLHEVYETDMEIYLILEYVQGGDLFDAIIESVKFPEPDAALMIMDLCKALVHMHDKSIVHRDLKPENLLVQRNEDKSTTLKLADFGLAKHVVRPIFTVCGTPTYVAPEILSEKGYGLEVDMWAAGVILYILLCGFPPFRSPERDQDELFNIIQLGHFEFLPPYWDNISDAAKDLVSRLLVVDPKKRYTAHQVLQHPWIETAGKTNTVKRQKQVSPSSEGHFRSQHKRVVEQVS
Sequence of UniProt Q9NRM7 (whole entry, looked up): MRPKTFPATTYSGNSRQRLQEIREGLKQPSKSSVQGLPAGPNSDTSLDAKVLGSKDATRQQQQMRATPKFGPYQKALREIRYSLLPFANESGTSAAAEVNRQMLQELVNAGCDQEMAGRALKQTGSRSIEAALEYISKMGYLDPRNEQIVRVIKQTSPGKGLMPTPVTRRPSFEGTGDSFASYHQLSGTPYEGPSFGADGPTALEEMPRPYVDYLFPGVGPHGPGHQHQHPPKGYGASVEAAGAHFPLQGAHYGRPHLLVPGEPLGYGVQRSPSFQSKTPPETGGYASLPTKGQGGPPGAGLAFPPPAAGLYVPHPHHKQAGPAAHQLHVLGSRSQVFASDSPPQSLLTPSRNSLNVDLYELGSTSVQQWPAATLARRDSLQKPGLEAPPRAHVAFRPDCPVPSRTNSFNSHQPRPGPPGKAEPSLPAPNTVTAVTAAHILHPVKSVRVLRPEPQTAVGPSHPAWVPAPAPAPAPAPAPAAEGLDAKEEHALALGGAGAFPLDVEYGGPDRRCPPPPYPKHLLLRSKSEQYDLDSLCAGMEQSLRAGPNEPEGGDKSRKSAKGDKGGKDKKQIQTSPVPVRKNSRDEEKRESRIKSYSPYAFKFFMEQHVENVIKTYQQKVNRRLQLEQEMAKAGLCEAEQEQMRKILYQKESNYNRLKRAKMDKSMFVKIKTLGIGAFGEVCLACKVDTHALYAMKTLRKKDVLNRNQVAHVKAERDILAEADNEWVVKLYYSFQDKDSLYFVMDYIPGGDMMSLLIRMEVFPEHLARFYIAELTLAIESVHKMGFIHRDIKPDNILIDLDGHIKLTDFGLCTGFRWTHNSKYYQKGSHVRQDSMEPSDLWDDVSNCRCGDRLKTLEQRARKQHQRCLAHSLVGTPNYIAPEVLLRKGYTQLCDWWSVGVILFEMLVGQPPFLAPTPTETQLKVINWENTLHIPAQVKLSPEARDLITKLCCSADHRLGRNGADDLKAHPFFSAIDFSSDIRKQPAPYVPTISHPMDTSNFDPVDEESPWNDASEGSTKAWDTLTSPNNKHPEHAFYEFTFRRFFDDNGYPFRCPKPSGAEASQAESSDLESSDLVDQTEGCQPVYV
Sequence of UniProt Q15349 (whole entry, looked up): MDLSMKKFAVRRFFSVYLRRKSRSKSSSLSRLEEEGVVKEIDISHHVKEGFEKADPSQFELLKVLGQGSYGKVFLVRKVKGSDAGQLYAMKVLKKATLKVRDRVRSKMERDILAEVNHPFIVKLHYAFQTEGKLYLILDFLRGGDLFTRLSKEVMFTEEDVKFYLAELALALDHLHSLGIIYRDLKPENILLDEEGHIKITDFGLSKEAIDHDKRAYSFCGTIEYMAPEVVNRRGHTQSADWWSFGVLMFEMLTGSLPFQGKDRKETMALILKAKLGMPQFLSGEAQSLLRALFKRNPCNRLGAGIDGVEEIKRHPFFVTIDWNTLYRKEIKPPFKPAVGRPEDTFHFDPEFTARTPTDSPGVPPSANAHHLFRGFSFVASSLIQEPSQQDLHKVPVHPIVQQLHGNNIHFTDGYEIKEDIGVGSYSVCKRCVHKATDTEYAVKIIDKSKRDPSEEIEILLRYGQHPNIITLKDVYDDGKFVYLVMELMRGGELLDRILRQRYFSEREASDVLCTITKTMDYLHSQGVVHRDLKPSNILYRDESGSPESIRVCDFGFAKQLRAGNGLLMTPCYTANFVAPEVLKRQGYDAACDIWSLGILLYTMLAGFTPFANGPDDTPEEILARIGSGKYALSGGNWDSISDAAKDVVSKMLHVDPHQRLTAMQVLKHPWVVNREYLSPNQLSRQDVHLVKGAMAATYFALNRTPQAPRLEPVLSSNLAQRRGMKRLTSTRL
Sequence of UniProt Q13043 (whole entry, looked up): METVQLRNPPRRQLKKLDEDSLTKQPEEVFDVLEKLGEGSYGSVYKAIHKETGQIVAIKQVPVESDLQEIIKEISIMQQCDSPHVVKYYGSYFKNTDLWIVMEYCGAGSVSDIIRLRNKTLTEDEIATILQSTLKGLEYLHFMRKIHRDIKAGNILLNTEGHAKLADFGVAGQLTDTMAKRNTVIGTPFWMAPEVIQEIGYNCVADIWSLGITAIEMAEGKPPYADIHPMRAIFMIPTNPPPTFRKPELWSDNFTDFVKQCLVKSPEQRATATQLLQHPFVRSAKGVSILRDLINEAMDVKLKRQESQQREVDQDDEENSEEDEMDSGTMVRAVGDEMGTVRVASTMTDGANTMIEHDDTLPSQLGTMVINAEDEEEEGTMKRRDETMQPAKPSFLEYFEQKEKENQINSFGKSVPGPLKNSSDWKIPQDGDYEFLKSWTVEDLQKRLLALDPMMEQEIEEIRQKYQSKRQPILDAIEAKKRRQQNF
Sequence of UniProt P30291 (whole entry, looked up): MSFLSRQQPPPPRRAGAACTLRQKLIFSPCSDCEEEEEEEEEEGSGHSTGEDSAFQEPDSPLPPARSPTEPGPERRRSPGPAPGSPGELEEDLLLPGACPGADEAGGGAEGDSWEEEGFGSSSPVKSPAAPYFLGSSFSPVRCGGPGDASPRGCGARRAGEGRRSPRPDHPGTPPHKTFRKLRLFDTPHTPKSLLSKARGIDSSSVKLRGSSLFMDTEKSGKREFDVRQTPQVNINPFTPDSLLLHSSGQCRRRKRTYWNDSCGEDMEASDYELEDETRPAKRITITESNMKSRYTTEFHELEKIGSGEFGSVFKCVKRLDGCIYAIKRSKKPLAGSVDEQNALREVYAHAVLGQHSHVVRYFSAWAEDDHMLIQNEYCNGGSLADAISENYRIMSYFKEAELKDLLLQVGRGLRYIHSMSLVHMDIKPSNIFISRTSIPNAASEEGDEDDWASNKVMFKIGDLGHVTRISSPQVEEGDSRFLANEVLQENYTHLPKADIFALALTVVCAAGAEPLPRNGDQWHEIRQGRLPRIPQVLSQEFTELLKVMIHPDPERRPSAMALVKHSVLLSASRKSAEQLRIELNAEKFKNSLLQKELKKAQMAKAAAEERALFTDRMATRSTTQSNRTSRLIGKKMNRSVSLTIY
Sequence of UniProt P49759 (whole entry, looked up): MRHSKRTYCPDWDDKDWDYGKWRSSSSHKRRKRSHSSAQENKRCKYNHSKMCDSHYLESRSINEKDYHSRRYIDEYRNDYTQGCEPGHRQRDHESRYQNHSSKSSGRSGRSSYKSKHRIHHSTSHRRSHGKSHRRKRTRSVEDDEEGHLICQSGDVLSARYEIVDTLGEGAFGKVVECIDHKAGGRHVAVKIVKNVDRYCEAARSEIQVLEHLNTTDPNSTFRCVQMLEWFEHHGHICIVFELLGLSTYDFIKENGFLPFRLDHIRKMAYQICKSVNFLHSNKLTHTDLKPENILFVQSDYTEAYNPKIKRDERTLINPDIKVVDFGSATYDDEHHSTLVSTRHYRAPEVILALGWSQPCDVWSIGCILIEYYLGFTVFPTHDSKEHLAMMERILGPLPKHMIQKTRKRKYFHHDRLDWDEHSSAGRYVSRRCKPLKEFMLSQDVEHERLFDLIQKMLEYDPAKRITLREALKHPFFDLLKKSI
Sequence of UniProt P78368 (whole entry, looked up): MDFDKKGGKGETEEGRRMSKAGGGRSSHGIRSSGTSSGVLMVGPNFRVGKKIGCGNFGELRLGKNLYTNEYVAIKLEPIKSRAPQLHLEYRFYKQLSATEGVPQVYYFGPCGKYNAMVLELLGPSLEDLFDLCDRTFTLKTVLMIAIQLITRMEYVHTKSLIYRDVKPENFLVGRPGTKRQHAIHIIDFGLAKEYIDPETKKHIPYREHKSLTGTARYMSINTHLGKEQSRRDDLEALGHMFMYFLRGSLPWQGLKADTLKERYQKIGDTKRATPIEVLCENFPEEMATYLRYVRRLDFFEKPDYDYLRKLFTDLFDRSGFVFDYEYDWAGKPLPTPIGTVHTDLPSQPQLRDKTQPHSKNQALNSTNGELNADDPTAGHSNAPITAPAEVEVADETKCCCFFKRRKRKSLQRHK

Series 1
Target: PABPC1L2, full length, GST fusion (mouse, UniProt A0ABA7IW68)
Method: RNAcompete
Form: RNA
Sample: in vitro
Tested at: 20 nM
Notes: 7-mer, probes averaged, single round
Reference: mean of 7-mers
Direction: higher = stronger binding
Construct (chain): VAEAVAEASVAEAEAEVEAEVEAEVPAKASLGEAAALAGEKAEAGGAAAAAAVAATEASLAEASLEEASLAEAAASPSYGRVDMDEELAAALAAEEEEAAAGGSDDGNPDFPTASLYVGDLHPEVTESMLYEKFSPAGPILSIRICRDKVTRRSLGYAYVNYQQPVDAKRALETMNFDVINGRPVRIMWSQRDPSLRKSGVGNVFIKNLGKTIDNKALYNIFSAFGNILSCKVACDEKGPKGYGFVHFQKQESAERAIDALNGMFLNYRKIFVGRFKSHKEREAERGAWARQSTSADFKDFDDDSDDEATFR
Strand | 7-mer Z-score
UCAAUCA | -0.186
ACAUCCU | -0.188
AGUCGCG | -0.103
AAGUUCC | -0.021
CGGCACA | -0.0772
CUGUAAG | -0.202
UCGCGCU | -0.362
UCUCCGA | -0.356

Series 2
Target: Hepatocyte nuclear factor 3-beta, forkhead domain (FOXA2, Homo sapiens, UniProt Q9Y261, residues 142-269)
Method: protein-binding microarray
Form: double-stranded DNA, one strand shown
Sample: in vitro
Tested at: not given
Notes: k-mer, scored over probes, only values ≥0.25
Direction: higher = stronger binding
Target sequence (chain): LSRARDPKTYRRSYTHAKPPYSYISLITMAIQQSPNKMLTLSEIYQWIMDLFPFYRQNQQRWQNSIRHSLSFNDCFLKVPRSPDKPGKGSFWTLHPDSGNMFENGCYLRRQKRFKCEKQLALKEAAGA
Strand | E-score
AACATCAC | 0.317
ATAATAAT | 0.309
AACATAAC | 0.317
ATAATTAA | 0.3
AAACAACA | 0.348
ACATATAG | 0.324
ACAAGTAT | 0.282
TATACTGA | 0.339

Series 3
SMILES: O=C(Nc1cnc(Oc2ccc(F)cc2)nc1)N1CCc2ncccc2[C@@H]1c1ccc(F)cc1
Read-out: cell-free assay
Method: competition with immobilised ligand
Tested at: 1 µM
target | remaining binding [%]
Tyrosine-protein kinase ABL1, non-phosphorylated (ABL1, Homo sapiens, UniProt P00519) | 93
CLK4 (Homo sapiens, UniProt Q9HAZ1) | 100
DCLK3 (Homo sapiens, UniProt Q9C098) | 96
Tyrosine-protein kinase ABL1, phosphorylated (ABL1, Homo sapiens, UniProt P00519, M351T) | 57
CLK1 (Homo sapiens, UniProt P49759) | 80
EGFR (Homo sapiens, UniProt P00533, del752-759) | 70
MYLK (Homo sapiens, UniProt Q15746) | 100
TNK2 (Homo sapiens, UniProt Q07912) | 93
EPHB1 (Homo sapiens, UniProt P54762) | 83
EGFR (Homo sapiens, UniProt P00533, L861Q) | 85
LATS2 (Homo sapiens, UniProt Q9NRM7) | 99
HIPK1 (Homo sapiens, UniProt Q86Z02) | 70
SBK3 (Homo sapiens, UniProt P0C264) | 90
Tyrosine-protein kinase ABL1, non-phosphorylated (ABL1, Homo sapiens, UniProt P00519, H396P) | 97
SRMS (Homo sapiens, UniProt Q9H3Y6) | 95
YES1 (Homo sapiens, UniProt P07947) | 98
TNIK (Homo sapiens, UniProt Q9UKE5) | 100
BRSK1 (Homo sapiens, UniProt Q8TDC3) | 87
STK4 (Homo sapiens, UniProt Q13043) | 100

Series 4
SMILES: O=C1NC(=O)c2c1c1c3ccccc3[nH]c1c1[nH]c3cc(Br)ccc3c21
Read-out: enzyme activity
Action: inhibitor
Tested at: 0.5 µM
Reference: control
target | remaining activity
ABL2 (Homo sapiens, UniProt P42684) | 93.8%
MERTK (Homo sapiens, UniProt Q12866) | 69.1%
MAP2K2 (Homo sapiens, UniProt P36507) | 105%
MAPK3 (Homo sapiens, UniProt P27361) | 108%
TEK (Homo sapiens, UniProt Q02763) | 93.8%
MAP3K14 (Homo sapiens, UniProt Q99558) | 101%
ULK2 (Homo sapiens, UniProt Q8IYT8) | 86%
MST1R (Homo sapiens, UniProt Q04912) | 101%
RPS6KA2 (Homo sapiens, UniProt Q15349) | 37.9%
FGFR3 (Homo sapiens, UniProt P22607) | 86.2%
WEE1 (Homo sapiens, UniProt P30291) | 74.6%
CSNK1G2 (Homo sapiens, UniProt P78368) | 89.5%
JAK3 (Homo sapiens, UniProt P52333) | 77%

For quick reference, copied from above (series 4):
target | remaining activity
MERTK (Homo sapiens, UniProt Q12866) | 69.1%
MAP2K2 (Homo sapiens, UniProt P36507) | 105%
MAPK3 (Homo sapiens, UniProt P27361) | 108%
TEK (Homo sapiens, UniProt Q02763) | 93.8%
MAP3K14 (Homo sapiens, UniProt Q99558) | 101%
ULK2 (Homo sapiens, UniProt Q8IYT8) | 86%
MST1R (Homo sapiens, UniProt Q04912) | 101%
